Measurements gathered from unrelated publications.
Each numbered part is a random draw from the data of one study; scales do not carry over between parts. “And” joins repeats or separate records; there may be more than shown.

Set 1 — effect on: enzyme activity; action: inhibitor; concentration: 77 µM; baseline: untreated
Target: DNA polymerase theta, ATPase domain (POLQ, Homo sapiens, UniProt O75417)
UniProt O75417, sequence (whole entry, unmodified, looked up): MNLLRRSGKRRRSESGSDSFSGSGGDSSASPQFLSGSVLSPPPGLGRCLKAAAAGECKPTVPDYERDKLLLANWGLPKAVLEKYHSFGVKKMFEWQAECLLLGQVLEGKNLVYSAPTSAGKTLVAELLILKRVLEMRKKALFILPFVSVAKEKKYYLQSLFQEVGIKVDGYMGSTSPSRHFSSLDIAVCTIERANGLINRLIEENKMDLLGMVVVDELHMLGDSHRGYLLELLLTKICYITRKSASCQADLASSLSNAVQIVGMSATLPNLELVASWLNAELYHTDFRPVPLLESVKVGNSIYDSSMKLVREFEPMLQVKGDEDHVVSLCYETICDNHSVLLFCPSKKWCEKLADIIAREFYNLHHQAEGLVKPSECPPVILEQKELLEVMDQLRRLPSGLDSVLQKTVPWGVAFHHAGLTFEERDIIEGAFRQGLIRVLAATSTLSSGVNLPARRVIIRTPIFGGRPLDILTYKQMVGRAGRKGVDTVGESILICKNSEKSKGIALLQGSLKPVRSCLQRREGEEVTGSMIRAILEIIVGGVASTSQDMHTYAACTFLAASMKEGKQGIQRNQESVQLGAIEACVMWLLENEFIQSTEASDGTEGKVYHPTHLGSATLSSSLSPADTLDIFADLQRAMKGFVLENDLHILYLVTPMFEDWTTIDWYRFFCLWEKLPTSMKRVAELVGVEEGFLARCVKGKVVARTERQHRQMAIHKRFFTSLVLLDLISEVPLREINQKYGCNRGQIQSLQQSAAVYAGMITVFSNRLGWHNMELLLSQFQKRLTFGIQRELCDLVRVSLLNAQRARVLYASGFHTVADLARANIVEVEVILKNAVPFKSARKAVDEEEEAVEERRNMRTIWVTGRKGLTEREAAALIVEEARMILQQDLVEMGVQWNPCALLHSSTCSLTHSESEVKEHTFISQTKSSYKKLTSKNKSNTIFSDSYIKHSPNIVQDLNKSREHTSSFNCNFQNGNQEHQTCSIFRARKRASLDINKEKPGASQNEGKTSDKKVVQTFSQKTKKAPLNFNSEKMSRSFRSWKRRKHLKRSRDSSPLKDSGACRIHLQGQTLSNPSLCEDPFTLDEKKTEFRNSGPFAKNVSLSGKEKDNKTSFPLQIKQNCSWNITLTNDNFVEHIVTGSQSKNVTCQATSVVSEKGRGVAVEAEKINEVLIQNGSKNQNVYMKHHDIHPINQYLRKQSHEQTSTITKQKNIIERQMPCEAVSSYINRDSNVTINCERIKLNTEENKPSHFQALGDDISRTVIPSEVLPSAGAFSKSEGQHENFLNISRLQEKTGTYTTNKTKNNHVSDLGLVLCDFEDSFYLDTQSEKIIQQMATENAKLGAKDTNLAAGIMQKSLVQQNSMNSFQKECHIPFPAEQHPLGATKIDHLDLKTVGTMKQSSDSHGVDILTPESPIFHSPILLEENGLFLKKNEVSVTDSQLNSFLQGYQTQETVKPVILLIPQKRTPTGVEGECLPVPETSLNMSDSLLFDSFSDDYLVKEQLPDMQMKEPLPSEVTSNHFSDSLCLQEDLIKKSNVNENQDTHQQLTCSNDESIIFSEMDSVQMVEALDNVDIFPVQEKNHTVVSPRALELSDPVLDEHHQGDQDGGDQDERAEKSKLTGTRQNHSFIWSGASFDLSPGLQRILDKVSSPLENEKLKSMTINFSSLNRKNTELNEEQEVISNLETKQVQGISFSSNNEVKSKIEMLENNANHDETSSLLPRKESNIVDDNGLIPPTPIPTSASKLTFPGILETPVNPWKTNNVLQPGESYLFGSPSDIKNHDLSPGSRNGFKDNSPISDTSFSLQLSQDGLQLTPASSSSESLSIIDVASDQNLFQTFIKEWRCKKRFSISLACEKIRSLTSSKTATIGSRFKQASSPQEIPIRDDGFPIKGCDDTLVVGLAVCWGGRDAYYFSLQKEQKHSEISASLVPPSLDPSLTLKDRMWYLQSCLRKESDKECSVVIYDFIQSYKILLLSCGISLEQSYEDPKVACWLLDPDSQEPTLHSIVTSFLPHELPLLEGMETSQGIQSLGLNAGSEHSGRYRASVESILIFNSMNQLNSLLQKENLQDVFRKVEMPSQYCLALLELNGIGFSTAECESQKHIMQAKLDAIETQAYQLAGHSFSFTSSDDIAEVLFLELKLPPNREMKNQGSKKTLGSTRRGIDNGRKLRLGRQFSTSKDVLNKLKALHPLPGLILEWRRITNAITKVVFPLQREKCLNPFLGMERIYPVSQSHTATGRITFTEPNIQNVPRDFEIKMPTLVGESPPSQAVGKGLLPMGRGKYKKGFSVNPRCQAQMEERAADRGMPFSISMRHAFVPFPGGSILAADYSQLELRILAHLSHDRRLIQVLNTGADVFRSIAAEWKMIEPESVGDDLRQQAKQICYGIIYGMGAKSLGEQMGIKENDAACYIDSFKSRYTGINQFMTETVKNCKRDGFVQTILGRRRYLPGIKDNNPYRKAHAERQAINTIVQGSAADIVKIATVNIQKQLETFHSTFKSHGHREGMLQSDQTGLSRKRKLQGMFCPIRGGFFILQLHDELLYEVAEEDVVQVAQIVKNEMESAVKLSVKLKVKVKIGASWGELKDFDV
For COc1ccc2cc(-c3nc(-c4ccc([S+](C)[O-])cc4)[nH]c3-c3ccncc3)ccc2c1 (centres unmarked), the remaining activity was 95.4%.
COc1ccc(-c2cc(=O)c3c(OC)c(OC)c(OC)c(OC)c3o2)cc1OC gave a remaining activity of 102%.
NC(=O)NO gave a remaining activity of 101% and 99.8%.
For CO/N=C(\C(=O)N[C@@H]1C(=O)N2C(C(=O)O)=C(CSC(=O)c3ccco3)CS[C@H]12)c1csc(N)n1, the remaining activity was 91.1%.
O=C(C[S+]([O-])Cc1ccco1)NC/C=C\COc1cc(CN2CCCCC2)ccn1 (centres unmarked) gave a remaining activity of 80.4%.
The remaining activity of CCCCN(CCCC)CC(O)c1cc(Cl)cc2c1-c1ccc(Cl)cc1/C2=C/c1ccc(Cl)cc1 (centres unmarked) is reported as 99.1%.
CCCCOC(=O)c1ccc(N)cc1 gave a remaining activity of 99.8%.
O=c1[nH]cnc2c1ncn2[C@@H]1O[C@H](CO)[C@@H](O)[C@H]1O has a remaining activity of 94.4%.

Set 2 — effect on: binding; method: radioligand binding; concentration: 10 µM
Target: Histamine H2 receptor (HRH2, Homo sapiens, UniProt P25021)
UniProt P25021, sequence (whole entry, looked up): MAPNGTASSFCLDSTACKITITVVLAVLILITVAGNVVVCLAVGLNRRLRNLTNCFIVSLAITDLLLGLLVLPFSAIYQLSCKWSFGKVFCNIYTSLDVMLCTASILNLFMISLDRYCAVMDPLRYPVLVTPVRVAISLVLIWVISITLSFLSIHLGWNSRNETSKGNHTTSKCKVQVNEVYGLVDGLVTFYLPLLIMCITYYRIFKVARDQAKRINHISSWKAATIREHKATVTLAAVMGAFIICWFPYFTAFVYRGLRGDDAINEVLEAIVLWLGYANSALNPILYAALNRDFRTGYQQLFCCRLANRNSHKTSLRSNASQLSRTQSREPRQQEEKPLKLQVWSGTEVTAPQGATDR
For CCCOc1ccc([C@H]2[C@H](C(=O)O)[C@@H](c3ccc4c(c3)OCO4)CN2CC(=O)Nc2c(CC)cccc2CC)cc1, the inhibition was 5.77%.
CC(C)CC(=O)N1CCc2nc(-c3ccc(Br)cc3)nc(N(C)Cc3ccccc3)c2C1 has an inhibition of 3.39%.
With CN(C)C(=O)Cn1cc(-c2nc([C@@](C)(c3ccc(-c4cnc(N)nc4)cc3)C3CC3)no2)cn1 the inhibition was -8.4%.
O=C(O)c1cc(-c2ccc(C3CCNCC3)cc2)c2ccc(-c3ccc(C(F)(F)F)cc3)cc2c1 has an inhibition of 28%.
For CS(=O)(=O)NCC[C@H](NC(=O)c1cncc2c1cnn2-c1ccc(F)cc1)c1ccnc(S(C)(=O)=O)c1, the inhibition was 2.46%.
For C[C@@H]1CN(c2cc(-c3nn(C)c4ccc(OC5(C)CC5)cc34)ncn2)C[C@H](C)O1, the inhibition was 18.4%.
The inhibition of O=C(Nc1ccc(-n2nc(-c3cccnc3)cc2C(F)(F)F)cn1)c1ccc(-c2ccccc2)c(F)c1 is reported as -5.62%.
CN1C(=O)[C@@H](N2CCc3cn(Cc4ccccc4)nc3C2=O)COc2ccccc21 has an inhibition of 11.9%.
With Cc1c[nH]c2nccc(Oc3c(F)cc(Nc4cc(Cl)nc(N)n4)cc3F)c12 the inhibition was 23.7%.

Set 3 — organism: Sarcocystis neurona; effect on: parasite growth; concentration: 10 µM; time: 96 h; setting: first screen; baseline: untreated
Under “log2 fold change”, O=c1cnn([C@@H]2O[C@H](CO)[C@@H](O)[C@H]2O)c(=O)[nH]1 is recorded as 0.21.
Under “log2 fold change”, O=C1NC(=O)C(c2ccccc2)(c2ccccc2)N1 is recorded as -0.31.
COc1cc(-c2ccc(=O)[nH]n2)ccc1OC(F)F: “log2 fold change” 0.56.
Under “log2 fold change”, CC1(C)O[C@@H]2C[C@H]3[C@@H]4CCC5=CC(=O)C=C[C@]5(C)[C@@]4(F)[C@@H](O)C[C@]3(C)[C@]2(C(=O)CO)O1 is recorded as -0.000194.
CN1[C@@H]2C[C@@H](OC(=O)[C@H](CO)c3ccccc3)C[C@H]1[C@@H]1O[C@@H]12: “log2 fold change” 0.19.
C[C@]12C=CC(=O)C=C1CC[C@@H]1[C@@H]2[C@@H](O)C[C@@]2(C)[C@H]1CC[C@]2(O)C(=O)CO — result for “log2 fold change”: 0.25.

Set 4 — effect on: enzyme activity; action: inhibitor; concentration: 0.5 µM; baseline: control
Target: Serine/threonine-protein kinase PAK 6 (PAK6, Homo sapiens, UniProt Q9NQU5)
UniProt Q9NQU5, sequence (whole entry, looked up): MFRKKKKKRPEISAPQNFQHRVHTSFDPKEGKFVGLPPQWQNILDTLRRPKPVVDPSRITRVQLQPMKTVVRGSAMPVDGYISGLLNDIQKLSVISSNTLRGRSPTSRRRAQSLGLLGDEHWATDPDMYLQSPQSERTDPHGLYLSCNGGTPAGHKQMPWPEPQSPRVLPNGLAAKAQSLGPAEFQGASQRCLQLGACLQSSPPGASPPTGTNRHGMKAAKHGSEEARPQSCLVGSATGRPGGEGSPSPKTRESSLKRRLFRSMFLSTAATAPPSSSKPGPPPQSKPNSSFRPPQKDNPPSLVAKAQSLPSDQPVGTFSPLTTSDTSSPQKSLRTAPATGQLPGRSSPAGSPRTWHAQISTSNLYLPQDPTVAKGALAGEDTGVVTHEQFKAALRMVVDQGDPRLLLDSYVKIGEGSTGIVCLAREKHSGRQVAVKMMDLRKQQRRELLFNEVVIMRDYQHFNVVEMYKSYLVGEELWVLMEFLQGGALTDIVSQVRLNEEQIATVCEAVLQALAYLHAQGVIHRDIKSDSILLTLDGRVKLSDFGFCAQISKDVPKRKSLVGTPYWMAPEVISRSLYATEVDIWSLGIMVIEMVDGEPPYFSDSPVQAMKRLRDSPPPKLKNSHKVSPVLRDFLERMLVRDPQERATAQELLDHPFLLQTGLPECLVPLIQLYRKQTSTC
COc1ccc(CNC(=O)Nc2ncc([N+](=O)[O-])s2)cc1 gave a remaining activity of 106%.
CN(C)c1ccc(C=C2C(=O)Nc3ccccc32)cc1 gave a remaining activity of 96.9%.
The remaining activity of O=C1NC(=O)C(c2cn(CCCn3ccnc3)c3ccccc23)=C1Nc1ccccc1 is reported as 105%.
Cc1nc(-c2ccccc2)c(-c2ccncc2)o1 has a remaining activity of 103%.
Nc1ncnc2n[nH]c(Nc3ccc(F)cc3)c12 gave a remaining activity of 109%.
For O=C(Nc1cccc(Nc2cc(Nc3cccc(C(F)(F)F)c3)ncn2)c1)C1CC1, the remaining activity was 99.3%.
CNC(=O)c1cc(Oc2ccc(NC(=O)Nc3ccc(Cl)c(C(F)(F)F)c3)cc2)ccn1 has a remaining activity of 104%.
The remaining activity of O=C(O)c1ccc2c3c1cccc3c(=O)n1c3ccccc3nc21 is reported as 103%.
For COc1ccc(C(=O)Nc2sc3c(c2C(N)=O)CCCC3)cc1OC, the remaining activity was 85.7%.
With COc1cc2ncnc(Nc3ccc(F)c(Cl)c3)c2cc1OCCCN1CCOCC1 the remaining activity was 105%.
Cc1cccc(-c2[nH]c(C(C)(C)C)nc2-c2ccc3c(c2)OCO3)n1 gave a remaining activity of 103%.
The remaining activity of COc1ccc(OC)c2c(=S)c3ccccc3[nH]c12 is reported as 112%.
The remaining activity of CO[C@H]1C[C@@H]2CC[C@@H](C)[C@@](O)(O2)C(=O)C(=O)N2CCCC[C@H]2C(=O)O[C@H]([C@H](C)C[C@@H]2CC[C@@H](O)[C@H](OC)C2)CC(=O)[C@H](C)/C=C(\C)[C@@H](O)[C@@H](OC)C(=O)[C@H](C)C[C@H](C)/C=C/C=C/C=C/1C is reported as 112%.
COc1cc2nccc(Oc3ccc(NC(=S)NC(=O)c4ccccc4C)cc3)c2cc1OC has a remaining activity of 95.8%.
For O=c1c2ccccc2[nH]c(=S)n1CCN1CCC(=C(c2ccc(F)cc2)c2ccc(F)cc2)CC1, the remaining activity was 98.4%.

A few entries again (set 1):
The remaining activity of CCCCN(CCCC)CC(O)c1cc(Cl)cc2c1-c1ccc(Cl)cc1/C2=C/c1ccc(Cl)cc1 (centres unmarked) is reported as 99.1%.
CCCCOC(=O)c1ccc(N)cc1 gave a remaining activity of 99.8%.
NC(=O)NO gave a remaining activity of 101% and 99.8%.
O=C(C[S+]([O-])Cc1ccco1)NC/C=C\COc1cc(CN2CCCCC2)ccn1 (centres unmarked) gave a remaining activity of 80.4%.
For COc1ccc2cc(-c3nc(-c4ccc([S+](C)[O-])cc4)[nH]c3-c3ccncc3)ccc2c1 (centres unmarked), the remaining activity was 95.4%.
